Measured values from different studies.
Every numbered part comes from another study and shows a few of its results, in no order. “And” joins repeats or separate records; there may be more than shown.
UniProt P31751, sequence (whole entry, looked up): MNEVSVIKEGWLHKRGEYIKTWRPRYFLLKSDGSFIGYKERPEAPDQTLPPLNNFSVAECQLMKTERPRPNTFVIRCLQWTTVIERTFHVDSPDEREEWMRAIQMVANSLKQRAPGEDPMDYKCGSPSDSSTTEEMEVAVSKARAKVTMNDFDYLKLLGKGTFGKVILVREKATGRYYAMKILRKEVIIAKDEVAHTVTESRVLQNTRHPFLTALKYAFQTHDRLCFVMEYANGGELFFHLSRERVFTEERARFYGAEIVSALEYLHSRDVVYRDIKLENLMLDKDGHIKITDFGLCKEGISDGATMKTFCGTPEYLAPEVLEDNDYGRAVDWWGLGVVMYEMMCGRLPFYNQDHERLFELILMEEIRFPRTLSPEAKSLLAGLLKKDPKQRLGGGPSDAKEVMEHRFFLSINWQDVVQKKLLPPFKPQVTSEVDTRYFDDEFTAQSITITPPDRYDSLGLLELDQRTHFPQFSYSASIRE
UniProt Q86UX6, sequence (whole entry, looked up): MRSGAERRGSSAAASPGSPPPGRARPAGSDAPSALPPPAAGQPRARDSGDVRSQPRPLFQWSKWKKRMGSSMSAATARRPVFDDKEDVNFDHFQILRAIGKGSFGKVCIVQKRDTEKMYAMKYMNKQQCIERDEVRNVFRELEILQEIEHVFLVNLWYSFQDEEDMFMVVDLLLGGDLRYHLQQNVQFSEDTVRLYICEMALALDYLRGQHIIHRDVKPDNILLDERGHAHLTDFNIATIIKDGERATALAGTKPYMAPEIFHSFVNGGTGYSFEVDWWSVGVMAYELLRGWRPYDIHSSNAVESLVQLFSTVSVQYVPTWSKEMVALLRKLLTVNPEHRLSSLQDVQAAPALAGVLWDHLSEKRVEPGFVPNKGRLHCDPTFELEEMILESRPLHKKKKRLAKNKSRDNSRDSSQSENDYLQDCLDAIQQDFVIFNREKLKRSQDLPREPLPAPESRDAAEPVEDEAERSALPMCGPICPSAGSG
UniProt Q9H1R3, sequence (whole entry, looked up): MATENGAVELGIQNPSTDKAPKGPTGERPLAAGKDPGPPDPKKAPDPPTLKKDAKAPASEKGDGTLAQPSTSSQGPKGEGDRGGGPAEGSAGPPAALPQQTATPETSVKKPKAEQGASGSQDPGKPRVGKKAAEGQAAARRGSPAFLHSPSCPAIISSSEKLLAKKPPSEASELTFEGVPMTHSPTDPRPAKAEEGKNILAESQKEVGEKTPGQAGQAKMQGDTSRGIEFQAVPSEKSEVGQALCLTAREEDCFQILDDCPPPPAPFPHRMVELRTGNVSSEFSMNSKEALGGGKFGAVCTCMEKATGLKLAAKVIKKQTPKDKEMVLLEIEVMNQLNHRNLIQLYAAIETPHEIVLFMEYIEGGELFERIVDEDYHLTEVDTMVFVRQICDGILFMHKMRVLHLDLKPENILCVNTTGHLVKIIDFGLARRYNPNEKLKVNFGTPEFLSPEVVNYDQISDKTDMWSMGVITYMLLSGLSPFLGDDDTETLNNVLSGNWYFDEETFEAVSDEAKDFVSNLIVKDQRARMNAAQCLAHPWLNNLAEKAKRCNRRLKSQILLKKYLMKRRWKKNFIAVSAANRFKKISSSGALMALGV
UniProt P42681, sequence (whole entry, looked up): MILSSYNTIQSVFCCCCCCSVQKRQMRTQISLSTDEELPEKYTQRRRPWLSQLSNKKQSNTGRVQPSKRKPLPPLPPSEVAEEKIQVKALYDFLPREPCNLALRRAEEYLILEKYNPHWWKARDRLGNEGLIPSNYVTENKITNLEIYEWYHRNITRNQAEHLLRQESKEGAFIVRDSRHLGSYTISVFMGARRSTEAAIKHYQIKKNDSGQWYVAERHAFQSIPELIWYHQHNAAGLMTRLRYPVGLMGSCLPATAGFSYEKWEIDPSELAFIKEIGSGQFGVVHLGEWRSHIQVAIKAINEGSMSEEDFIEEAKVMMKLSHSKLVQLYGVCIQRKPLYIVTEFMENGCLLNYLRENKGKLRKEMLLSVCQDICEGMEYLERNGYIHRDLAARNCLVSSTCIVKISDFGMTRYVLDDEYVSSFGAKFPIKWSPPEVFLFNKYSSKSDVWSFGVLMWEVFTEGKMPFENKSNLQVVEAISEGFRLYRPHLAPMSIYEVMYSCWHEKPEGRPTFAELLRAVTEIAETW
UniProt P08631, sequence (whole entry, looked up): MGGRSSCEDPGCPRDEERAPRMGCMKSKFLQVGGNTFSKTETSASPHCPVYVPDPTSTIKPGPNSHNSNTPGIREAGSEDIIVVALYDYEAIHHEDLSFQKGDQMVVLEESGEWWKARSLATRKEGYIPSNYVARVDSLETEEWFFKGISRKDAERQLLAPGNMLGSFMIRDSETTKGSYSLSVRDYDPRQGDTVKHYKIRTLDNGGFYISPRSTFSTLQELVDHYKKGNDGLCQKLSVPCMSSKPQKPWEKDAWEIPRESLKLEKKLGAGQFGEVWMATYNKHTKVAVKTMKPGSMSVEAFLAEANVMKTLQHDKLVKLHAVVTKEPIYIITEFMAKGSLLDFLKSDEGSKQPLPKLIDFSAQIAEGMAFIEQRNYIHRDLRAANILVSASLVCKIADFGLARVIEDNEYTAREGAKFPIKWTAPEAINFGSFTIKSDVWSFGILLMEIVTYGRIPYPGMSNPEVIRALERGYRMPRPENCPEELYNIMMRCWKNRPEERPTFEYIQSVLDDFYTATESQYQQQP
UniProt Q15831, sequence (whole entry, looked up): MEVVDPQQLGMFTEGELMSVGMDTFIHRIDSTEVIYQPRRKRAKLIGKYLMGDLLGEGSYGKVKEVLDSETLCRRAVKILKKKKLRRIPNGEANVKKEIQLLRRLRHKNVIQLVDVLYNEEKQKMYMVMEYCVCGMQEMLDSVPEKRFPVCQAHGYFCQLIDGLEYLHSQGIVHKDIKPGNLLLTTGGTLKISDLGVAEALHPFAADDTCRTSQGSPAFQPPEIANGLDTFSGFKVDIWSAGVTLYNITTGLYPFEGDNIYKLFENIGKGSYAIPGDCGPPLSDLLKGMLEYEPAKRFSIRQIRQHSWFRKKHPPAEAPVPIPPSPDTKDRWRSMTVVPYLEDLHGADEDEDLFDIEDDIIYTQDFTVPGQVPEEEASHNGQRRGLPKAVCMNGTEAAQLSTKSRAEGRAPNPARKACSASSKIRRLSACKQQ
UniProt P78368, sequence (whole entry, looked up): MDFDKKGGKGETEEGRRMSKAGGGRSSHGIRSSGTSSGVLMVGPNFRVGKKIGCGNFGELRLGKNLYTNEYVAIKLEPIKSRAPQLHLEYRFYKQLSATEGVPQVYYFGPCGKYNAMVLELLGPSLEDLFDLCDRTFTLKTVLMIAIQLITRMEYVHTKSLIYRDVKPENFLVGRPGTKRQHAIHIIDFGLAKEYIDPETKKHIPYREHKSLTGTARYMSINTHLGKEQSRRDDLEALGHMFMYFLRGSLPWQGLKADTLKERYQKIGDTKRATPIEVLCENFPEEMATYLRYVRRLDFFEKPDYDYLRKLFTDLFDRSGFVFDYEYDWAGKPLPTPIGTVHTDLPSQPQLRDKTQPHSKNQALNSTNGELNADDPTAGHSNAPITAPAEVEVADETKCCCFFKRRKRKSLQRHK
UniProt O15111, sequence (whole entry, looked up): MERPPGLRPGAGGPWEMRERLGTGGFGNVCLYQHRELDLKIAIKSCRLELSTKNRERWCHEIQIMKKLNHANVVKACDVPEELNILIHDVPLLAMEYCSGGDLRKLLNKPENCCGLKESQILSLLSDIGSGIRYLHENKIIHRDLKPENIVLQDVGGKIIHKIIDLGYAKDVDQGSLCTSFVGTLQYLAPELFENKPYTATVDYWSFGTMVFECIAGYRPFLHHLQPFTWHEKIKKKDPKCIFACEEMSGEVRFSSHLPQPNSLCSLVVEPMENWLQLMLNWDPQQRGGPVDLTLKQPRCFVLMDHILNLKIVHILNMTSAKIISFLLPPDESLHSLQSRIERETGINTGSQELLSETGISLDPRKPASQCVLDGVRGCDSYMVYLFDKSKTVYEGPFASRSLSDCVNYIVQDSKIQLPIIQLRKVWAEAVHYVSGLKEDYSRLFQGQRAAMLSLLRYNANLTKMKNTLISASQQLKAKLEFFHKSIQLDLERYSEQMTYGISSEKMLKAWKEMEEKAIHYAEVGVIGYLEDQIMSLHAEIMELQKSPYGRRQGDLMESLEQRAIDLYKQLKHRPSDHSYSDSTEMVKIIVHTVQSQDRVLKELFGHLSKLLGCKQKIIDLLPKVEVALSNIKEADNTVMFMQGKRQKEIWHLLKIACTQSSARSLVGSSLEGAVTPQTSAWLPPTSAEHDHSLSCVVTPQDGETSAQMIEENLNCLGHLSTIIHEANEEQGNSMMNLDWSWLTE
UniProt Q9UQB9, sequence (whole entry, looked up): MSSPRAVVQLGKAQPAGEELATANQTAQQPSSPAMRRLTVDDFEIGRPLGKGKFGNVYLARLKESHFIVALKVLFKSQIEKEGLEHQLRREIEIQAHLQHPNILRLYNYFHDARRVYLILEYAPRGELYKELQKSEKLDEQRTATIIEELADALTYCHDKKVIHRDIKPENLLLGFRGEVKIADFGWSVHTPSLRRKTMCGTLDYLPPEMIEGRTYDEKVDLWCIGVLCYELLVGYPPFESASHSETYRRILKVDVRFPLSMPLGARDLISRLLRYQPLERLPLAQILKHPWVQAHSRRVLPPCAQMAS

Series 1
Target: Death-associated protein kinase 3 (DAPK3, Homo sapiens, UniProt O43293)
UniProt O43293, sequence (whole entry, looked up): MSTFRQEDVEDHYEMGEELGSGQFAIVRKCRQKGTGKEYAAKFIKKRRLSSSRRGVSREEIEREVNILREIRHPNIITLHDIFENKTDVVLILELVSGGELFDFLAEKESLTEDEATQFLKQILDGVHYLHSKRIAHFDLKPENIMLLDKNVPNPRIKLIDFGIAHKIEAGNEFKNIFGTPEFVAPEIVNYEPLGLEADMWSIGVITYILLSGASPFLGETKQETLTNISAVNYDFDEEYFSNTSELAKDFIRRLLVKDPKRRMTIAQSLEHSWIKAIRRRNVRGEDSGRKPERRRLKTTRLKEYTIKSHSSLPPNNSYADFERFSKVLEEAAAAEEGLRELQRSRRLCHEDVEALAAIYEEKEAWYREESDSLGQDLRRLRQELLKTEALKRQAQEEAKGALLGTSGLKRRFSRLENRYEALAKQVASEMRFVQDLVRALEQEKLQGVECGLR
Observed: enzyme activity
Action: inhibitor
Concentration: 0.5 µM
Baseline: control
Quantity: remaining activity
Cc1cccc(-c2[nH]c(C(C)(C)C)nc2-c2ccc3c(c2)OCO3)n1: 97%
Nc1ccc2ncnc(NCCc3ccc(Oc4ccccc4)cc3)c2c1: 104%
O=C(Nc1cccc(Nc2cc(Nc3cccc(C(F)(F)F)c3)ncn2)c1)C1CC1: 99.8%
O=S(=O)(c1cccc2cnccc12)N1CCCNCC1: 93%
Oc1ccc(-c2nc(-c3ccncc3)c(-c3ccc(F)cc3)[nH]2)cc1: 100%
CCOC(=O)c1c(C)[nH]c(/C=C2\C(=O)Nc3ccccc32)c1C: 85.1%
O=C1NC(=O)C(c2cn(CCCO)c3ncccc23)=C1c1cnccn1: 80.2%
O=C1NC(=O)C(c2cn(CCCn3ccnc3)c3ccccc23)=C1Nc1ccccc1: 104%
O=c1c2ccccc2[nH]c(=S)n1CCN1CCC(=C(c2ccc(F)cc2)c2ccc(F)cc2)CC1: 102%
Cc1nc(-c2ccccc2)c(-c2ccncc2)o1: 101%
Cc1ccc(Nc2nccc(N(C)c3ccc4c(C)n(C)nc4c3)n2)cc1S(N)(=O)=O: 92.3%
Cn1c2ccccc2c2c3c(c4c5ccccc5n(CCC#N)c4c21)CNC3=O: 93.6%
COc1ccc(OC)c2c(=S)c3ccccc3[nH]c12: 112%
Cc1ccc(NC(=O)c2ccc(CN3CCN(C)CC3)cc2)cc1Nc1nc(-c2cccnc2)cs1: 100%
NCCNc1ncc(C(N)=O)c(Nc2cccc(C(F)(F)F)c2)n1: 96.7%

Series 2
Compound: CC(C)S(=O)(=O)c1ccc2nccc(Nc3ccc4sc(C5CCCC5)nc4c3)c2c1.Cl
Concentration: 1 µM
Quantity: remaining activity
FLT3 (Homo sapiens, UniProt P36888); kinase activity, inhibitor: 77%
BRAF (Homo sapiens, UniProt P15056); kinase activity, inhibitor: 86%
DAPK1 (Homo sapiens, UniProt P53355); kinase activity, inhibitor: 111%
MAPKAPK2 (Homo sapiens, UniProt P49137); kinase activity, inhibitor: 103%
PKCβII(h) (human): 107% and 97%
AKT2 (Homo sapiens, UniProt P31751); kinase activity, inhibitor: 105%
CSNK1G2 (Homo sapiens, UniProt P78368); kinase activity, inhibitor: 104%
GRK4 (Homo sapiens, UniProt P32298); kinase activity, inhibitor: 107%
PIK3C2G (Homo sapiens, UniProt O75747); kinase activity, inhibitor: 96%

Series 3
Cell line: HaCaT
Concentration: 100 µM
Time: 60 h
Quantity: viability
Cn1nnc2c(C(N)=O)ncn2c1=O: 142%
CCCCCCCCCC[C@H](C(=O)O)[C@]1(C(=O)O)CCC(=O)O1: 135%
Oc1cc(O)c(Cl)cn1: 141%
Cc1ccsc1C(=CCCN1CCC[C@@H](C(=O)O)C1)c1sccc1C: 79.4%

Series 4
SMILES: CC(C)(O)c1cncc(-c2nc3ccc(F)cc3n2C2CC2)c1
Concentration: 1 µM
Quantity: remaining binding
CHUK (Homo sapiens, UniProt O15111); cell-free assay, competition with immobilised ligand: 100%
MYLK2 (Homo sapiens, UniProt Q9H1R3); cell-free assay, competition with immobilised ligand: 97%
CDK19 (Homo sapiens, UniProt Q9BWU1); competition binding: 94%
GSK3B (Homo sapiens, UniProt P49841); cell-free assay, competition with immobilised ligand: 100%
AKT2 (Homo sapiens, UniProt P31751); cell-free assay, competition with immobilised ligand: 84%
HCK (Homo sapiens, UniProt P08631); cell-free assay, competition with immobilised ligand: 100%
FLT3 (Homo sapiens, UniProt P36888, D835H); cell-free assay, competition with immobilised ligand: 89%
BMP2K (Homo sapiens, UniProt Q9NSY1); cell-free assay, competition with immobilised ligand: 100%
EPHA8 (Homo sapiens, UniProt P29322); cell-free assay, competition with immobilised ligand: 100%
MAP3K4 (Homo sapiens, UniProt Q9Y6R4); cell-free assay, competition with immobilised ligand: 100%
ERN1 (Homo sapiens, UniProt O75460); cell-free assay, competition with immobilised ligand: 100%
FLT3 (Homo sapiens, UniProt P36888, D835V/ITD); cell-free assay, competition with immobilised ligand: 83%
STK11 (Homo sapiens, UniProt Q15831); cell-free assay, competition with immobilised ligand: 98%
Receptor-type tyrosine-protein kinase FLT3, autoinhibited (FLT3, Homo sapiens, UniProt P36888); cell-free assay, competition with immobilised ligand: 100%
MET (Homo sapiens, UniProt P08581, M1250T); cell-free assay, competition with immobilised ligand: 100%
STK32C (Homo sapiens, UniProt Q86UX6); cell-free assay, competition with immobilised ligand: 100%
CSNK1D (Homo sapiens, UniProt P48730); cell-free assay, competition with immobilised ligand: 100%
TXK (Homo sapiens, UniProt P42681); binding, competition with immobilised ligand: 92%
MAP3K1 (Homo sapiens, UniProt Q13233); cell-free assay, competition with immobilised ligand: 100%
HASPIN (Homo sapiens, UniProt Q8TF76); cell-free assay, competition with immobilised ligand: 83%
MAP3K15 (Homo sapiens, UniProt Q6ZN16); cell-free assay, competition with immobilised ligand: 100%
Aurora kinase C (AURKC, Homo sapiens, UniProt Q9UQB9); cell-free assay, competition with immobilised ligand: 100%
MAP2K4 (Homo sapiens, UniProt P45985); cell-free assay, competition with immobilised ligand: 100%
EGFR (Homo sapiens, UniProt P00533, del747-750/T751S); cell-free assay, competition with immobilised ligand: 100%
BMPR2 (Homo sapiens, UniProt Q13873); cell-free assay, competition with immobilised ligand: 100%

Some of these lines once more (series 3):
CCCCCCCCCC[C@H](C(=O)O)[C@]1(C(=O)O)CCC(=O)O1: 135%
Oc1cc(O)c(Cl)cn1: 141%
Cc1ccsc1C(=CCCN1CCC[C@@H](C(=O)O)C1)c1sccc1C: 79.4%
